# Assay results pooled from the literature.
# Each numbered part is a random draw from the data of one study; scales do not carry over between parts. Positions count from the first letter of the parent shown.

# Sample 1
# Target: DBP, bZIP domain (human)
# Method: DHFR protein complementation
# Medium: yeast
# Notes: single substitutions, most at no-binding floor
# Reference: wild-type JUN-FOS pair
# Reading: higher = stronger binding
# Parent: JUN, bZIP domain (human); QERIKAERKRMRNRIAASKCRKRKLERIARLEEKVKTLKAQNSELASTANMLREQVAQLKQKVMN; partner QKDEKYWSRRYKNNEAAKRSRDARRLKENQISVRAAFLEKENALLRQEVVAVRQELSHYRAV
Change,binding fitness
T37Q,-1.2 natural log
L52W,-1.56 natural log
M51F,-1.49 natural log
L45T,-1.49 natural log
R53H,-1.49 natural log
T48V,-1.49 natural log
T48I,-1.44 natural log
Q55M,-1.37 natural log
L31Q,-1.52 natural log
A49Q,-1.39 natural log
E54P,-1.5 natural log
L45E,-1.59 natural log
L31H,-1.4 natural log
S43V,-1.45 natural log

# Sample 2
# Target: CCNE2, cyclin fold, Cln2 fusion (human)
# Method: yeast growth competition, sequencing
# Medium: yeast
# Notes: weak parent motif
# Reference: not given
# Reading: higher = stronger binding
# Parent: RB1 docking peptide (human); PKPLKKLRFDIEG
Change,normalised enrichment score
K6G,0.452
G13S,0.916
L4G,0.497
P3W,1.37
D10F,0.787
K2Q,0.322
K5M,-0.247
R8H,0.177
K2T,0.0539
L7E,0.0747
I11V,1.01

# Sample 3
# Target: Sal-like protein 4, full length isoform A (SALL4, Homo sapiens, UniProt Q9UJQ4, residues 1-1053)
# Sequence of UniProt Q9UJQ4 (whole entry, looked up): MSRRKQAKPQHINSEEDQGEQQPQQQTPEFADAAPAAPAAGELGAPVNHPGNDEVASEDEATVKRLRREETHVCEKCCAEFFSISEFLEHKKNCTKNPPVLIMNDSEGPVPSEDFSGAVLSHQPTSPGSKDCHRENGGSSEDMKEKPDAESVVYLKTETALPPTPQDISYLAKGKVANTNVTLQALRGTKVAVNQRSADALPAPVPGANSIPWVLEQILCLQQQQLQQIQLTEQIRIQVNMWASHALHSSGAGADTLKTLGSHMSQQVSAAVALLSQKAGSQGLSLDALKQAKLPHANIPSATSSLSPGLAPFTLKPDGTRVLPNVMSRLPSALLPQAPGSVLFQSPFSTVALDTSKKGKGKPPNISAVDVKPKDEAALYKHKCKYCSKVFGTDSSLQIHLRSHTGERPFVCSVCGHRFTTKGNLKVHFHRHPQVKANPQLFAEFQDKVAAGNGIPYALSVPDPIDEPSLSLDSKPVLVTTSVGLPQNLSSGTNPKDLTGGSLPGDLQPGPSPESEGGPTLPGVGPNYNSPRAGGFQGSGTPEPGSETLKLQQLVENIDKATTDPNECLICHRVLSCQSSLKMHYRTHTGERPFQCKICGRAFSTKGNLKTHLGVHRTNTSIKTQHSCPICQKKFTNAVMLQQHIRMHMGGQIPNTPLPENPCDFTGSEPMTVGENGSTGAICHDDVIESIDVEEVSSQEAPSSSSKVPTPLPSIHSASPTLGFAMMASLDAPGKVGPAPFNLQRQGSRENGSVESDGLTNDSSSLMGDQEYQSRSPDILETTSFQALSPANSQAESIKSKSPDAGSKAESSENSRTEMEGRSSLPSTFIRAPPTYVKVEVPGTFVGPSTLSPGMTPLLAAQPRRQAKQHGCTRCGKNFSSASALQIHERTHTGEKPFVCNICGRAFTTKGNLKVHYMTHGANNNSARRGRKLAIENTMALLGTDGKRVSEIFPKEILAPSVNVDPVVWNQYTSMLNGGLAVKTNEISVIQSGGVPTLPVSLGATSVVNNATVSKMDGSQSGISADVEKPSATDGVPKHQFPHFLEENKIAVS
# Method: universal PBM
# Molecule type: double-stranded DNA, one strand shown
# Medium: in vitro
# Concentration: 600 nM
# Notes: 8-mer, flanks averaged, mean of replicates
# Reading: higher = stronger binding
Oligonucleotide,E-score
CACCTATG,-0.0477
AATAGGCG,0.129
ACCGTGGA,-0.218
ACCGACCG,-0.227
GCACCATA,0.0804
ATAAGGAA,0.131
ATTACAAC,0.244
ATTCTGGC,-0.0998
ATCAACAG,0.0766
GAAGCGAA,-0.0279
AGCTATAC,0.104
ATTACACG,0.155
GAGCACGC,-0.312
CATGATGA,0.163
AGGATCCC,-0.264
AACTGAAT,0.098

# Mixed results
Substance,target,assay,system,setting,scale,quantity,result
"PhoQ, residues 284 288 289 292 302 303 GTAMQF","PhoP, residues 12 14 15 18 19 STWGI (Escherichia coli, UniProt P23836)","Sort-seq, item: YFP reporter",E. coli,"PhoQ-PhoP variant library, together with: 10 µM Mg2+","reference: high Mg2+ state, higher = stronger signaling",fold induction,1.1

# Repeated from above (sample 2):
Change,normalised enrichment score
G13S,0.916
L7E,0.0747
K6G,0.452
